Results pooled from the literature.
Lines come from different studies, so protocols differ.
Cell line: ACHN

For `COc1cc(CNC(=O)C[C@H](C)CCC=C(C)C)ccc1OCc1cn(-c2ccc(Cl)cc2Cl)nn1`, the growth percent was 61.1% (SRB; 10 µM, 48 h).
The inhibition of `COc1ccc2c(c1)/C(=N\Nc1nnc3n1N=C(c1ccccc1)CS3)C(=O)N2` is reported as 35% (cell growth or viability, SRB; 10 µM).
The growth percent of `COc1cc(CNC(=O)C[C@H](C)CCC=C(C)C)ccc1OCc1cn(-c2ccccc2)nn1` is reported as 111% (SRB; 10 µM, 48 h).
`CC(=O)OC[C@H]1O[C@@H](Sc2sc(C(=O)c3ccc(Br)cc3)c(N)c2-c2nc3ccccc3s2)[C@H](OC(C)=O)[C@@H](OC(C)=O)[C@@H]1OC(C)=O` gave a growth of 97.8% (SRB; 10 µM, 48 h; reference: untreated).
`COc1cc(CNC(=O)C[C@H](C)CCC=C(C)C)ccc1OCc1cn(-c2ccc(F)cc2)nn1` has a growth percent of 69% (SRB; 10 µM, 48 h).
With `CCC(=C(c1ccc(Cl)cc1)c1ccc(OCCCN(C)C)cc1)c1ccc(OC)cc1` the GI50 was 5.61 µM (cell growth or viability).
For `COc1ccc(C2=Nn3c(NN=C4C(=O)N(Cc5ccccc5)c5ccc(Cl)cc54)nnc3SC2)cc1`, the inhibition was 23% (cell growth or viability, SRB; 10 µM).
The GI50 of `CC(Cc1ccc(Cl)cc1)=C(c1ccc(Cl)cc1)c1ccc(OCCN(C)C)cc1` is reported as 5.12 µM (cell growth or viability).
`CC/C=C\C/C=C\C/C=C\C/C=C\C/C=C\C/C=C\CCC(=O)Nc1ccn(C2OC(CO)C(O)C2(F)F)c(=O)n1` (stereo not drawn) has a GI50 of under 0.01 µM (cell growth or viability, SRB).

Excerpt of the above:
For `COc1ccc(C2=Nn3c(NN=C4C(=O)N(Cc5ccccc5)c5ccc(Cl)cc54)nnc3SC2)cc1`, the inhibition was 23% (cell growth or viability, SRB; 10 µM).
The GI50 of `CC(Cc1ccc(Cl)cc1)=C(c1ccc(Cl)cc1)c1ccc(OCCN(C)C)cc1` is reported as 5.12 µM (cell growth or viability).
